Values quoted from earlier work, collected from citations in different studies.
Numbers after ± are the reported error.
Gastrin-releasing peptide receptor: Gastrin-releasing peptide receptor (Rattus norvegicus, UniProt P52500)
Sequence of UniProt P52500 (whole entry, looked up): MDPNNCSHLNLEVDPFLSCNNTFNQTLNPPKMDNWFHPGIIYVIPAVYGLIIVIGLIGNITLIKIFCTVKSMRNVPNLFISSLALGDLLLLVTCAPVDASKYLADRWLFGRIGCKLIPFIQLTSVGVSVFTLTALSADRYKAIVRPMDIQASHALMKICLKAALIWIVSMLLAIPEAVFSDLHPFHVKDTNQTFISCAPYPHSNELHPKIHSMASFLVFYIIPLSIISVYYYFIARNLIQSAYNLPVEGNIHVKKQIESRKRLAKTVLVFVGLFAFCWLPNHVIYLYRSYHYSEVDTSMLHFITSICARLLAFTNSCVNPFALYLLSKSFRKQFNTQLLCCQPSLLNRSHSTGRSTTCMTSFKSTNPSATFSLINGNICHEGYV
gag-pol integrase: Gag-Pol polyprotein, integrase (gag-pol, Human immunodeficiency virus type 1 group M subtype B, UniProt P04585)
atpG/atpA/atpD: atpG/atpA/atpD (Escherichia coli, UniProt P0ABA6+P0ABB0+P0ABB4)
Sequence of UniProt P0ABA6 (whole entry, looked up): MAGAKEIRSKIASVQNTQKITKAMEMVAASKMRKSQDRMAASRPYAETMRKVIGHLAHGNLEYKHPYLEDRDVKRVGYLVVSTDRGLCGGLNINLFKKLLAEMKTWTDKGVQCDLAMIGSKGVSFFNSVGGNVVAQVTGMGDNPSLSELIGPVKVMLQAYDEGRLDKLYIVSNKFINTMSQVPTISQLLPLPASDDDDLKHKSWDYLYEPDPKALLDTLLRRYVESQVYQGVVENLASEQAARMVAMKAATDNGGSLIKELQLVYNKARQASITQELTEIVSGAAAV
Sequence of UniProt P0ABB0 (whole entry, looked up): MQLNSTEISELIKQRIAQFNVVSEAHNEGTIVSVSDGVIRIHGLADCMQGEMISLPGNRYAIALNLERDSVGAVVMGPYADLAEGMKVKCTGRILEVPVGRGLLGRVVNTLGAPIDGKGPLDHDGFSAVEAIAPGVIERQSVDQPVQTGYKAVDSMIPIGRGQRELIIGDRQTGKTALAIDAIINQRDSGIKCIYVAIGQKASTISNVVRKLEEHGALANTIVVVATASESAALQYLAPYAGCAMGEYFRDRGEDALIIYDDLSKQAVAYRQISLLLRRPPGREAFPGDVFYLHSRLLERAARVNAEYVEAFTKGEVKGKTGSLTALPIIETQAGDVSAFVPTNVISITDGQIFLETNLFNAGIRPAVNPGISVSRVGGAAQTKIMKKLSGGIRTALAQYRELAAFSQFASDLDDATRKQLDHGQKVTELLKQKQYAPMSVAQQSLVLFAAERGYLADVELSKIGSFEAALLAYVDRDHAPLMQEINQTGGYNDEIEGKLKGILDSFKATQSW
Sequence of UniProt P0ABB4 (whole entry, looked up): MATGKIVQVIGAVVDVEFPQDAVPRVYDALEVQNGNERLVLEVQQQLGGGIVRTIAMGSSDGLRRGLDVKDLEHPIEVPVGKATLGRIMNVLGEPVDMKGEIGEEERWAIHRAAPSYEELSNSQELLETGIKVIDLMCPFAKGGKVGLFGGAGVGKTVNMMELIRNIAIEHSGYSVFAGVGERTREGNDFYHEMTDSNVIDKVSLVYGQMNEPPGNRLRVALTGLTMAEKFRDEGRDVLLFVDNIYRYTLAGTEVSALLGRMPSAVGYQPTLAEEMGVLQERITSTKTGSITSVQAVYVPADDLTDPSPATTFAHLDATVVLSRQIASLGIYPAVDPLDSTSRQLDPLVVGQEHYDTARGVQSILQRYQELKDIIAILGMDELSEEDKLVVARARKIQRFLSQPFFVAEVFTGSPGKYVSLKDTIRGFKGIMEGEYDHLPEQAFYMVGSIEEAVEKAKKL
Sequence of UniProt P14756 (whole entry, looked up): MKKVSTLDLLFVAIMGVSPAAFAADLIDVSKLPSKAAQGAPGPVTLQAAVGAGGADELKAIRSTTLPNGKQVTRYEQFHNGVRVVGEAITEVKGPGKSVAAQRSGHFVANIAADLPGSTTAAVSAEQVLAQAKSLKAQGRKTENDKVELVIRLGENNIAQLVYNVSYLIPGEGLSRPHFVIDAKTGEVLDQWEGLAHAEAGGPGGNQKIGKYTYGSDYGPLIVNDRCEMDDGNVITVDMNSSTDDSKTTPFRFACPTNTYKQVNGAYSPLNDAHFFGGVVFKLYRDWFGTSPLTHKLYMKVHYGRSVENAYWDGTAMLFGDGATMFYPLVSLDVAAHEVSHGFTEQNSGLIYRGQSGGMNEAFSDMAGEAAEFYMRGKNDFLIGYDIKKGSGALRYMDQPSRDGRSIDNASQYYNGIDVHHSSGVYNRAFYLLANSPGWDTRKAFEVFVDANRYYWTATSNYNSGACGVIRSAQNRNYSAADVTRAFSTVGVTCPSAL
Sequence of UniProt P0A6F5 (whole entry, looked up): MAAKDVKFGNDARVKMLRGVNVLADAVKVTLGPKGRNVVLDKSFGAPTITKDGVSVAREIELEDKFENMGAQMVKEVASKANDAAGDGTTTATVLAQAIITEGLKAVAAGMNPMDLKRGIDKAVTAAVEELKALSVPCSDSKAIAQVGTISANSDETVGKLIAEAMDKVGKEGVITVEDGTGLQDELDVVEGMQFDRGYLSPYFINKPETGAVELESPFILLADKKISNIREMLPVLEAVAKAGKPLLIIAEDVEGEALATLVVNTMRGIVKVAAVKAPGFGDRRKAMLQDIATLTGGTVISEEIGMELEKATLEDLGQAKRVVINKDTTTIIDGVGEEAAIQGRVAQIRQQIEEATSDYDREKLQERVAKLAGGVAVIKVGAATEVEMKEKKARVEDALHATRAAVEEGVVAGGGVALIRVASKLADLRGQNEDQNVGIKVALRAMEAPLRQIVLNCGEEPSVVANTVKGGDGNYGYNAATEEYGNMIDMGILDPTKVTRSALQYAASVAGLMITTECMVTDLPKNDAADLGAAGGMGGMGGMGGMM
Sequence of UniProt Q60492 (whole entry, looked up): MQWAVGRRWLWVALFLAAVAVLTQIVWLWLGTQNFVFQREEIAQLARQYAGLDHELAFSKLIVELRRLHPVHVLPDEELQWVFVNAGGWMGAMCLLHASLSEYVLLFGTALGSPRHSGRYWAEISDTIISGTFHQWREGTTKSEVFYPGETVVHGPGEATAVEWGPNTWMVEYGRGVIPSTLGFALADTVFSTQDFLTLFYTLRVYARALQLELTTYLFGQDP
Sequence of UniProt P06276 (whole entry, looked up): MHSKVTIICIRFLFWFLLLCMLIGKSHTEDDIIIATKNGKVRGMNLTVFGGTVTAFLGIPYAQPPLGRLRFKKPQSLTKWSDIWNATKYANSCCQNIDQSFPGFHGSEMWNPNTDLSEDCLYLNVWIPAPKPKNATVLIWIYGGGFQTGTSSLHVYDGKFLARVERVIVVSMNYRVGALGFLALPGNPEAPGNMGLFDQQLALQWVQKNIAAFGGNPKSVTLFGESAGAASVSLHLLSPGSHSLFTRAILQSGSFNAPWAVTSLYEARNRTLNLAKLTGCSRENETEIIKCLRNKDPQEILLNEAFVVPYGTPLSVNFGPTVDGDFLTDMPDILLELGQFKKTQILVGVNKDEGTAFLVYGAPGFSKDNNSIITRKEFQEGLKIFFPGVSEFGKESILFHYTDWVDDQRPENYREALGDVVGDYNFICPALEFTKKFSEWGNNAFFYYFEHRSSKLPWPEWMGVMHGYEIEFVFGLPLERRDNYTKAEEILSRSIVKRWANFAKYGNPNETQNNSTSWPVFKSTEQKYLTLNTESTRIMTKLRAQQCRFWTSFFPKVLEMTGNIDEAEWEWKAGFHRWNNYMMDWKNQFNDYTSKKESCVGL
Sequence of UniProt Q07817 (whole entry, unmodified, looked up): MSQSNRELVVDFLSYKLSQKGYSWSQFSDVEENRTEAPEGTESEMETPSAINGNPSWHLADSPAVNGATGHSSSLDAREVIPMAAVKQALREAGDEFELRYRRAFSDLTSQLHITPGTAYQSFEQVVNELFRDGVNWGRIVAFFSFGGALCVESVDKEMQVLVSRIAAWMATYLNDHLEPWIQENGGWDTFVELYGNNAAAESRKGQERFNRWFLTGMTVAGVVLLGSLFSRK
Sequence of UniProt O94956 (whole entry, looked up): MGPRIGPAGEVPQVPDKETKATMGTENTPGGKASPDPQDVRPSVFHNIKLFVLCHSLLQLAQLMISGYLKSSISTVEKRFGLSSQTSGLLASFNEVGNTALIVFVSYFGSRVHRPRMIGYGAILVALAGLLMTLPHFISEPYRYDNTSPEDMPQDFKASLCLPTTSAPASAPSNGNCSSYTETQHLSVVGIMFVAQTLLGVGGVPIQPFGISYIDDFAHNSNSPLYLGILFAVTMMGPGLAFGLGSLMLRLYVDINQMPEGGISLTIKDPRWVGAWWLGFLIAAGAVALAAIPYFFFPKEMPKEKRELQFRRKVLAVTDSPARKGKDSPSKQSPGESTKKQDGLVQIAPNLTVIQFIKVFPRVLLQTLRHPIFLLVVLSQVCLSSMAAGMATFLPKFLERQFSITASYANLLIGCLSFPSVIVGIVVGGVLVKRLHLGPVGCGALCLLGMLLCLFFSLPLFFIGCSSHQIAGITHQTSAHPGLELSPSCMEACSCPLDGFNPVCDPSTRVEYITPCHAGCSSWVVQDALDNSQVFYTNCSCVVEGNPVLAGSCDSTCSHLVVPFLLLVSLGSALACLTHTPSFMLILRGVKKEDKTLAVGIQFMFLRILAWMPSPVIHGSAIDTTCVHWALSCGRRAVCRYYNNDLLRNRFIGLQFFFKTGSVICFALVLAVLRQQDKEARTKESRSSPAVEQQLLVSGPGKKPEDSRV
Sequence of UniProt Q7RTV0 (whole entry, looked up): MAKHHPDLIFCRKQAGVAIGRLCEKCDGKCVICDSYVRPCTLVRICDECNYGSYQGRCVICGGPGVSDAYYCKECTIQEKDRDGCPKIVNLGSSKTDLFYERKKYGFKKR
Sequence of UniProt P0A884 (whole entry, looked up): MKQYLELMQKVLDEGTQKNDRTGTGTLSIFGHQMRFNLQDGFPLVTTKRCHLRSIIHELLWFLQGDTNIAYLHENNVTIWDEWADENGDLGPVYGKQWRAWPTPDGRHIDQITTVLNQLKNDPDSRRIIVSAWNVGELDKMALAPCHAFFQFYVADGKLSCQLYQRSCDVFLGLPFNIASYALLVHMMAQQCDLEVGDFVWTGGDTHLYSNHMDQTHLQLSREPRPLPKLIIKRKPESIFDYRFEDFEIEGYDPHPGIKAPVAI

SMILES	target	assay	system	setting	IC50 [nM]
CCOC(=O)[C@H](CC(C)C)NC(=O)[C@H](Cc1c[nH]cn1)NC(=O)CNC(=O)[C@@H](NC(=O)[C@H](C)NC(=O)[C@H](Cc1c[nH]c2ccccc12)NC(=O)[C@H](CCC(N)=O)NC(=O)[C@H](N)Cc1ccccc1)C(C)C	Gastrin-releasing peptide receptor	binding		literature species comparison	5 ± 1
Cc1cc2c(C(C)C)c(O)c(O)c(C=O)c2c(O)c1-c1c(C)cc2c(C(C)C)c(O)c(O)c(C=O)c2c1O	Bcl-2-like protein 1, transmembrane domain deleted (BCL2L1, Homo sapiens, UniProt Q07817)	fluorescence polarization			540
CCCCCCNC(=O)[C@H](CC(C)C)NC(=O)[C@H](Cc1cnc[nH]1)NC(=O)CNC(=O)[C@@H](NC(=O)[C@H](C)NC(=O)[C@H](Cc1c[nH]c2ccccc12)NC(=O)[C@H](CCC(N)=O)NC(=O)[C@H](N)Cc1ccccc1)C(C)C	Gastrin-releasing peptide receptor	binding		literature species comparison	103 ± 8
CC(C)C[C@H]1C(=O)N2CCC[C@H]2[C@]2(O)O[C@](NC(=O)[C@@H]3C=C4c5cccc6[nH]c(Br)c(c56)C[C@H]4N(C)C3)(C(C)C)C(=O)N12	Genome polyprotein, NS2B-NS3 protease (Zika virus, UniProt Q32ZE1)	protease activity			21600
CCCNC(=O)[C@H](CC(C)C)NC(=O)[C@H](Cc1cnc[nH]1)NC(=O)CNC(=O)[C@@H](NC(=O)[C@H](C)NC(=O)[C@H](Cc1c[nH]c2ccccc12)NC(=O)[C@H](CCC(N)=O)NC(=O)[C@H](N)Cc1ccccc1)C(C)C	Gastrin-releasing peptide receptor	binding		literature species comparison	6.4 ± 0.8
CC(C)c1c(Cc2ccccc2)n(COCc2ccc(F)cc2)c(=O)n(O)c1=O	gag-pol integrase	strand transfer, inhibitor, gel	HIV-1		3500 ± 600
CCCCNC(=O)[C@H](CC(C)C)NC(=O)[C@H](Cc1c[nH]cn1)NC(=O)CNC(=O)[C@@H](NC(=O)[C@H](C)NC(=O)[C@H](Cc1c[nH]c2ccccc12)NC(=O)[C@H](CCC(N)=O)NC(=O)[C@H](N)Cc1ccccc1)C(C)C	Gastrin-releasing peptide receptor	binding		literature species comparison	14 ± 1
O=C(O)C1=CC(=C(c2ccc(O)c(C(=O)O)c2)c2ccc(O)c(C(=O)O)c2)C=CC1=O	HCV NS3 helicase	DNA unwinding, inhibitor			600 ± 100
COc1ccc(C(=O)NN=Cc2ccc(O)c3ncccc23)cc1	Chaperonin GroEL, with GroES (groEL, Escherichia coli, UniProt P0A6F5)	GroEL/ES-mediated refolding, inhibitor		added: denatured rhodanese	18000
NCc1c[nH]c(=S)n1[C@H]1CCc2c(F)cc(F)cc2C1	dopamine β-hydroxylase	inhibitor			9
CC(C)c1ccc(NC(=O)Oc2ccc3c(c2)[C@]2(C)CCN[C@@H]2N3)cc1	Cholinesterase (BCHE, Homo sapiens, UniProt P06276)	enzyme activity, inhibitor			1 ± 0.1
Nc1nc(N)c2c(n1)[nH]c1cccc(Sc3ccccc3)c12	Thymidylate synthase (Escherichia coli K-12, UniProt P0A884)				> 27000
CC(C)c1c(Cc2ccccc2)n(COCc2ccccc2)c(=O)n(O)c1=O	gag-pol integrase	strand transfer, inhibitor, gel	HIV-1		21000 ± 2000
CCCCCCC[C@@H]1CC[C@@H](CCCC)N1	SIGMAR1 (Cavia porcellus, UniProt Q60492)	binding		added: [3H](+)-pentazocine	2
O=c1c(O[C@@H]2O[C@H](CO)[C@@H](O)[C@H](O)[C@H]2O)c(-c2ccc(O)c(O)c2)oc2cc(O)cc(O)c12	atpG/atpA/atpD	ATP synthase activity, inhibitor			~71000
CO[C@H]([C@@H](C)[C@H]1O[C@]1(C)C[C@H](C)/C=C/C=C(\C)[C@H]1O[C@@H](CC(=O)O)CC[C@@H]1C)[C@@H](C)O	Splicing factor 3B subunit 1 / PHD finger-like domain-containing protein 5A (Homo sapiens, UniProt O75533+Q7RTV0)	in vitro splicing, inhibitor			300
O=C(/C=C/c1ccc(O)c(O)c1)O[C@@H]1C[C@](O)(C(=O)O)C[C@@H](O)[C@H]1O	HIV integrase	enzyme activity, inhibitor			> 50000
O=c1cccccc1O	Elastase (lasB, Pseudomonas aeruginosa, UniProt P14756)	inhibitor			387000 ± 1000
Oc1ccc(/C=C/c2cc(O)cc(O)c2)cc1	atpG/atpA/atpD	ATP synthase activity, inhibitor			~94000
CC(C)C[C@H](NC(=O)OCc1ccccc1)C(=O)N[C@@H](CC1CCNC1=O)C(O)S(=O)(=O)O (stereo partly drawn)	CAPN1 (Homo sapiens, UniProt P07384)	inhibitor			74
CCOc1cc(Oc2ccc(C(F)(F)F)cc2Cl)ccc1[N+](=O)[O-]	Sodium/iodide cotransporter (Rattus norvegicus, UniProt Q63008)	iodide uptake, inhibitor	FRTL-5		2000
Cc1cccc(C)c1OCC(=O)N[C@@H](Cc1ccccc1)[C@@H](O)C[C@H](Cc1ccccc1)NC(=O)[C@H](C(C)C)N1CCCNC1=O	SLCO2B1 (Homo sapiens, UniProt O94956)	transport			720
O=C(Oc1ccc([N+](=O)[O-])cc1)N1CCC(C(O)(c2ccc3c(c2)OCO3)c2ccc3c(c2)OCO3)CC1	Faah (Mus musculus, UniProt O08914)			previously reported	4690
O=C(O)CC[C@H]1CC[C@@](c2cc(F)ccc2F)(S(=O)(=O)c2ccc(Cl)cc2)CC1	gamma-secretase	substrate cleavage, inhibitor			50
O=C(CCNNC(=O)c1ccncc1)NCc1ccccc1	monoamine oxidase (rat)		brain homogenate		2600 to 13000
O=C(O)[C@]1(O)C[C@@H](O)[C@@H](O)[C@H](O)C1	HIV integrase	enzyme activity, inhibitor			> 25000
Oc1cc(O)cc(/C=C/c2ccc(O)c(O)c2)c1	atpG/atpA/atpD	ATP synthase activity, inhibitor			~14000

Excerpt of the above:
SMILES	target	assay	system	setting	IC50 [nM]
NCc1c[nH]c(=S)n1[C@H]1CCc2c(F)cc(F)cc2C1	dopamine β-hydroxylase	inhibitor			9
CC(C)c1c(Cc2ccccc2)n(COCc2ccccc2)c(=O)n(O)c1=O	gag-pol integrase	strand transfer, inhibitor, gel	HIV-1		21000 ± 2000
